Results from different studies.
Each line is one published result; not all experiments were run side by side. Numbers after ± are the reported error.

For `N=C(N)NCCC[C@@H]1NC(=O)[C@H](CCCCNC(=O)CNC(=O)CNC(=O)CNC(=O)CC[C@H](NC(=O)CCOCCOCCOCCOCCNC(=O)CC[C@H](NC(=O)CN2CCN(CC(=O)O)CCN(CC(=O)O)CCN(CC(=O)O)CC2)C(=O)NCCOCCOCCOCCOCCC(=O)N[C@@H](CCC(=O)NCC(=O)NCC(=O)NCC(=O)NCCCC[C@@H]2NC(=O)[C@@H](Cc3ccccc3)NC(=O)[C@H](CC(=O)O)NC(=O)CNC(=O)[C@H](CCCNC(=N)N)NC2=O)C(=O)NCC(=O)NCC(=O)NCC(=O)NCCCC[C@@H]2NC(=O)[C@@H](Cc3ccccc3)NC(=O)[C@H](CC(=O)O)NC(=O)CNC(=O)[C@H](CCCNC(=N)N)NC2=O)C(=O)NCC(=O)NCC(=O)NCC(=O)NCCCC[C@@H]2NC(=O)[C@@H](Cc3ccccc3)NC(=O)[C@H](CC(=O)O)NC(=O)CNC(=O)[C@H](CCCNC(=N)N)NC2=O)NC(=O)[C@@H](Cc2ccccc2)NC(=O)[C@H](CC(=O)O)NC(=O)CNC1=O` [indium-111 labelled], the tissue uptake was 0.69 ± 0.07 %ID/g (female athymic nude mice, eyes; intravenous, 3 µCi, 1 h, U-87 MG glioma xenograft).
For `[11CH3]n1c(=O)n(CCCO)c(=O)c2c1nc(Oc1cccc(OC(F)(F)F)c1)n2Cc1ccc(Cl)cc1`, the tracer uptake was 0.51 ± 0.12 %ID/g (ex vivo biodistribution; Sprague Dawley rat, brain; 5 min post injection).
The Vd/F of `CC[C@H](C)C(=O)N1CCC(NC(=O)Nc2ccc(OC(F)(F)F)c(F)c2)CC1` is reported as 178 L (human, plasma; oral, 8 mg, single dose, healthy volunteers).
`CN(C)C(CNC(=O)Nc1cc(C(F)(F)F)ccc1N1CCOCC1)c1ccncc1` (centres unmarked) has a serum ALT of 106 U/L (mouse, serum; intraperitoneal, 120 mg/kg single dose).
With `N=C(N)NCc1ccc(C(=O)NCCCC[C@H](NC(=O)N[C@@H](CCC(=O)O)C(=O)O)C(=O)O)cc1[211At]` the tissue uptake was 0.89 ± 0.18 %ID/g (SCID mouse, PC-3 xenografts, heart; 2 h).
`CCCC[C@H](NC(=O)CN1CCC(NC(=O)CN2CCC(NC(=O)CN3CCN(CC(=O)O)CCN(CC(=O)O)CCN(CC(=O)O)CC3)CC2)CC1)C(=O)N[C@H]1CC(=O)NCCCC[C@@H](C(N)=O)NC(=O)[C@H](Cc2c[nH]c3ccccc23)NC(=O)[C@H](CCCNC(=N)N)NC(=O)[C@@H](Cc2ccccc2)NC(=O)[C@H](Cc2c[nH]cn2)NC1=O` [gallium-68 labelled]: “tumour to blood ratio” 13.6 ± 3.1 (biodistribution; C57BL/6J mouse male tumour-bearing; 1 h post injection, unblocked; reference: tumour over blood).
`COc1cc2ccnc(Cc3ccc(O[11CH3])c(OC)c3)c2cc1OC` gave a brain uptake of 0.038 %ID/g (Sprague-Dawley rat, hippocampus; i.v., 30 min).
`CSCC[C@H](NC(=O)CNC(=O)[C@H](CC(=O)O)NC(=O)[C@@H](NC(=O)[C@@H](NC(=O)[C@@H](NC(=O)CNC(=O)[C@H](CCC(N)=O)NC(=O)[C@H](CCSC)NC(=O)[C@H](CC(=O)O)NC(=O)[C@H](C)NC(=O)[C@H](C)NC(=O)[C@@H](NC(=O)[C@H](CO)NC(=O)[C@@H](N)CC(C)C)[C@@H](C)O)C(C)C)C(C)C)[C@@H](C)O)C(=O)N[C@@H](C)C(=O)N[C@@H](CO)C(=O)NCC(=O)N[C@@H](CC(C)C)C(=O)N[C@@H](CC(=O)O)C(=O)N[C@@H](CCCCN)C(=O)N[C@@H](CC(=O)O)C(=O)N[C@@H](Cc1ccc(O)cc1)C(=O)N[C@@H](CC(C)C)C(=O)N[C@@H](CCCCN)C(=O)N1CCC[C@H]1C(=O)N[C@@H](CC(=O)O)C(=O)N[C@@H](CC(=O)O)C(=O)O` gave a Cmax of 7680 ng/mL (human, serum; intravenous, 2.5 mg/kg, patients, infusion).
Under “distribution coefficient D”, `Cc1ccc(C(C)C)cc1.Cn1ccnc1CNCCNc1ccnc2cc(Cl)ccc12.[Cl-].[Cl][Ru+]` is recorded as 2.06 ± 0.78 (shake-flask method; water/n-octanol; pH 6.6).
Under “glucuronide to parent ratio”, `CC(CCC(=O)NCC(=O)O)C1CCC2C3C(O)CC4CC(OC5OC(C(=O)O)C(O)C(O)C5O)CCC4(C)C3CCC12C` (centres unmarked) is recorded as 0.118 (human, T/C genotype, plasma; dose not given, geometric mean, sex-adjusted).
For `CC(C)[C@H](NC(=O)CNC(=O)[C@H](CCC(N)=O)NC(=O)[C@H](C)N)C(=O)O`, “subjects given concomitant medication” read 0% (human; 1 mg/kg single dose).
For `O=P([O-])([O-])Oc1ccc(-c2cc(=S)ss2)cc1.[Na+].[Na+]`, the solubility was 1543 ± 4.45 µg/mL (HPLC; 0.9% NaCl; 48 h, pH 7.4, 25 °C).
For `CCCC[C@H](NC(=O)CNC(=O)CNC(=O)c1ccc(NN)nc1)C(=O)N[C@H]1CC(=O)NCCCC[C@@H](C(N)=O)NC(=O)[C@H](Cc2c[nH]c3ccccc23)NC(=O)[C@H](CCCNC(=N)N)NC(=O)[C@@H](Cc2ccccc2)NC(=O)[C@H](Cc2c[nH]cn2)NC1=O` [technetium-99m labelled], the tissue uptake was 0.01 ± 0.01 %ID/g (C57 mouse, B16/F1 melanoma-bearing, brain; intravenous, 24 h).
For `C[C@@H]1CC[C@H]2[C@@H](C)CO[C@@H]3O[C@@]4(C)CC[C@@H]1[C@]32OO4`, the AUC extrapolated was 3.57 ± 1.47% (Sprague-Dawley rat, male; intravenous, 5 mg/kg).
`CC(=CCC(O)C(C)=Cc1csc(C)n1)CC=CC(C)C(O)C(C)C(=O)C(C)(C)C(O)CC(=O)O` (centres unmarked) has a Tmax of 3.55 ± 0.64 h (human, plasma; intravenous infusion, 48 mg/m2 KOS-1584, 3 h infusion, cycle 1).
`CC(C)[C@H](NC(=O)CNC(=O)[C@H](CCC(N)=O)NC(=O)[C@H](C)N)C(=O)O`: “subjects with severe AE” 0% (healthy male volunteers; intravenous, 15 mg/kg/h, 2 h, with: LPS 2 ng/kg).
`CCCCCCCCC=CCCCCCCCC(=O)OCC1OC(n2ccc(N)nc2=O)C(F)(F)C1O` (centres unmarked): “body weight loss” 10% (female nude mouse, colon xenograft, patient-derived colon tumour; oral, 150 mg/kg, dosed days 1 and 8).
`N=C(N)NCCC[C@@H]1NC(=O)[C@H](CCCCNC(=O)CC[C@H](NC(=O)CCOCCOCCOCCOCCNC(=O)CN2CCN(CC(=O)O)CCN(CC(=O)O)CCN(CC(=O)O)CC2)C(=O)NCCCC[C@@H]2NC(=O)[C@@H](Cc3ccccc3)NC(=O)[C@H](CC(=O)O)NC(=O)CNC(=O)[C@H](CCCNC(=N)N)NC2=O)NC(=O)[C@@H](Cc2ccccc2)NC(=O)[C@H](CC(=O)O)NC(=O)CNC1=O` [indium-111 labelled] — result for “tumour to tissue ratio”: 5.43 ± 0.99 (athymic nude mice, female, U-87 MG glioma xenograft, tumour and blood; intravenous, 0.5 h; reference: tumour over blood).
`CC(C)C[C@@H](NC(=O)[C@@H](Cc1ccccc1)NC(=O)[C@H](N)Cc1ccccc1)C(=O)N[C@H](CCCCN)C(=O)N1CCC(N)(C(=O)O)CC1` — result for “volume of distribution”: 0.155 L/kg (human, plasma; intravenous, 5 µg/kg).
Under “standard enthalpy of micellization”, `CCCCCCCCCCCCC(=O)O.O=C1CCCC2C3CCCN4CCCC(CN12)C34` (centres unmarked) is recorded as -0.657 kcal/mol (electrical conductivity; water; 313.15 K, critical micelle concentration).
With `O=C(c1ccc(F)cc1)C1CCN(C2Cc3c(cccc3OCC[18F])CC2O)CC1` (single isomer, unassigned; (-)) the brain uptake was 0.761 %ID/g (male Sprague-Dawley rat, striatum; intravenous, 120 min).
For `CCCCCCCC/C=C\CCCCCCCCOP(O)(O)=S.N`, the Vz/F was 1.23 L/kg (mouse, female, irradiated; subcutaneous, single dose 24 h after irradiation, with: 15.6 Gy partial-body irradiation).
`CC(=O)[O-].CN1CCCN2CCN(CCCN(Cc3ccccc3)CC2)CC1.F[P-](F)(F)(F)(F)F.[Co+2]`: “irreversible oxidation potential” 1.16 V (cyclic voltammetry; acetonitrile; reference: SHE).
For `CSCC[C@@H]1NC(=O)[C@@H]2CSSC[C@H](NC(=O)[C@H](CO)NC(=O)[C@H](C)N)C(=O)N[C@@H](CCCNC(=N)N)C(=O)N[C@@H]([C@@H](C)O)C(=O)N3CCC[C@H]3C(=O)N[C@@H](CCCCN)C(=O)N[C@@H](CC(=O)O)C(=O)N[C@H]3CSSC[C@H](NC(=O)[C@H](CCCCN)NC(=O)[C@H](CCCNC(=N)N)NC(=O)[C@H](CC(N)=O)NC1=O)C(=O)N[C@@H](CCCCN)C(=O)N[C@H]1CSSC[C@H](NC(=O)[C@@H]4CCCN4C(=O)[C@H](CC(=O)O)NC(=O)[C@H](C)NC3=O)C(=O)N[C@@H](C)C(=O)N[C@@H](CCCCN)C(=O)N[C@@H](CCC(=O)O)C(=O)N[C@@H]([C@@H](C)O)C(=O)NCC(=O)N[C@@H](CSSC[C@@H](C(N)=O)NC(=O)[C@H](CCCNC(=N)N)NC(=O)[C@H](CC(N)=O)NC1=O)C(=O)N1CCC[C@H]1C(=O)N[C@@H](Cc1ccc(O)cc1)C(=O)NCC(=O)N[C@@H](CCCCN)C(=O)N2`, the total protein was 4.92 g/dL (DA rat, pristane-induced arthritis, serum; subcutaneous, 0.1 mg/kg single dose at onset, 21 days).
The tumour-to-tissue ratio of `COc1cc(C(=O)NCCOCCOCCOCCNC(=O)c2ccc([18F])nc2)ccc1NC(=O)C1NC(CC(C)(C)C)C(C#N)(c2ccc(Cl)cc2F)C1c1cccc(Cl)c1F` (centres unmarked) is reported as 1.64 ± 0.26 (athymic male mice, SJSA-1 xenograft; 1 h; reference: tumour over muscle).
With `CCC[C@@H]1O[C@@H]2C[C@H]3[C@@H]4C[C@H](F)C5=CC(=O)CC[C@]5(C)[C@@]4(F)[C@@H](O)C[C@]3(C)[C@]2(C(=O)CO)O1` the bioavailability was 48% (CD1 mice, plasma; subcutaneous, 0.2 mg/kg).
With `CC(C)C[C@@H](NC(=O)[C@@H](C)NC(=O)[C@@H](CC(C)C)NC(=O)[C@@H](CCCCN)NC(=O)[C@H](N)CCCCN)C(=O)N[C@H](C)C(=O)N[C@H](CC(C)C)C(=O)N[C@H](C)C(=O)N[C@H](CCCCN)C(=O)N[C@H](CCCCN)C(=O)N[C@H](Cc1c[nH]c2ccccc12)C(=O)N[C@H](CC(C)C)C(=O)N[C@H](C)C(=O)N[C@H](CC(C)C)C(=O)N[C@H](C)C(=O)N[C@H](CCCCN)C(=O)N[C@H](CCCCN)C(=O)N[C@H](CC(C)C)C(=O)N[C@H](C)C(=O)N[C@H](CC(C)C)C(=O)N[C@H](C)C(=O)N[C@H](CC(C)C)C(=O)N[C@H](C)C(=O)N[C@H](CCCCN)C(=O)N[C@H](CCCCN)C(N)=O` the HC50 was 17.4 ± 2.17 µM (haemolysis; human erythrocytes; 30 min, pH 7.4, 37 °C).
For `CN[C@](C)(C[18F])C(=O)O`, the tissue uptake was 2.9 ± 0.6 %ID/g (SCID mouse SK-OV-3 xenograft, lung; 30 min post injection).
`F[P-](F)(F)(F)(F)F.F[P-](F)(F)(F)(F)F.[Ru+2].c1ccc(-c2ccccn2)nc1.c1ccc(-c2ccccn2)nc1.c1csc(-c2ccc(-c3ccc(-c4cc5cccnc5c5ncccc45)s3)s2)c1` has a triplet lifetime of 27 µs (transient absorption; degassed acetonitrile).
The SUV max of `NC(=O)[C@@H](Cc1ccccc1)N[11C](=O)OCc1ccccc1` is reported as 1.7 (binding, dynamic PET; Wistar rat, male, brain; intravenous, 3 min, with: self-blocking, 3 µmol/kg unlabelled analogue, 3 min before).
For `COc1ccc(C)cc1NC(=O)OC1CC2CCCC(C1)N2Cc1ccc(CC[18F])cc1` (centres unmarked), “tumour to tissue ratio” read 0.82 (BALB/c mice, EMT6 tumour; 2 h; reference: tumour over lung).
With `COC(=O)C[C@H](NC(=O)[C@H](C)NC(=O)[C@@H](NC(=O)[C@H](CC(=O)OC)NC(=O)[C@@H](NC(=O)c1ccc2ccccc2n1)C(C)C)C(C)C)C(=O)COc1c(F)cccc1F` the PaO2 was 69.8 ± 2.24 mmHg (rat pups; 1 mg/kg, 1 h).

Excerpt of the above:
The tumour-to-tissue ratio of `COc1cc(C(=O)NCCOCCOCCOCCNC(=O)c2ccc([18F])nc2)ccc1NC(=O)C1NC(CC(C)(C)C)C(C#N)(c2ccc(Cl)cc2F)C1c1cccc(Cl)c1F` (centres unmarked) is reported as 1.64 ± 0.26 (athymic male mice, SJSA-1 xenograft; 1 h; reference: tumour over muscle).
With `CCC[C@@H]1O[C@@H]2C[C@H]3[C@@H]4C[C@H](F)C5=CC(=O)CC[C@]5(C)[C@@]4(F)[C@@H](O)C[C@]3(C)[C@]2(C(=O)CO)O1` the bioavailability was 48% (CD1 mice, plasma; subcutaneous, 0.2 mg/kg).
With `CC(C)C[C@@H](NC(=O)[C@@H](C)NC(=O)[C@@H](CC(C)C)NC(=O)[C@@H](CCCCN)NC(=O)[C@H](N)CCCCN)C(=O)N[C@H](C)C(=O)N[C@H](CC(C)C)C(=O)N[C@H](C)C(=O)N[C@H](CCCCN)C(=O)N[C@H](CCCCN)C(=O)N[C@H](Cc1c[nH]c2ccccc12)C(=O)N[C@H](CC(C)C)C(=O)N[C@H](C)C(=O)N[C@H](CC(C)C)C(=O)N[C@H](C)C(=O)N[C@H](CCCCN)C(=O)N[C@H](CCCCN)C(=O)N[C@H](CC(C)C)C(=O)N[C@H](C)C(=O)N[C@H](CC(C)C)C(=O)N[C@H](C)C(=O)N[C@H](CC(C)C)C(=O)N[C@H](C)C(=O)N[C@H](CCCCN)C(=O)N[C@H](CCCCN)C(N)=O` the HC50 was 17.4 ± 2.17 µM (haemolysis; human erythrocytes; 30 min, pH 7.4, 37 °C).
